Results from different studies.
Every numbered part comes from another study and shows a few of its results, in no order. Several values in a cell are separate wells, animals, samples, runs or records. Changes are numbered by the printed parent chain.

Sample 1 — method: protein-binding microarray; form: double-stranded DNA, one strand shown; matrix: in vitro; concentration: 250 nM; setting: 60-bp whole probe; together with: salmon DNA 0.4 mg/ml; reference: random background probes; reading: higher = stronger binding; shared flanks, not repeated: GCCTAGCAC … GTCTTGATTCGCTTGACGCTGCTG
Target: Interferon regulatory factor 7, full length, phosphomimetic (IRF7, Homo sapiens, UniProt Q92985, residues 1-503, S101K/S471D/S472D/S475D/S476D/S477D/S483D/S484D/S487D)
Construct (chain): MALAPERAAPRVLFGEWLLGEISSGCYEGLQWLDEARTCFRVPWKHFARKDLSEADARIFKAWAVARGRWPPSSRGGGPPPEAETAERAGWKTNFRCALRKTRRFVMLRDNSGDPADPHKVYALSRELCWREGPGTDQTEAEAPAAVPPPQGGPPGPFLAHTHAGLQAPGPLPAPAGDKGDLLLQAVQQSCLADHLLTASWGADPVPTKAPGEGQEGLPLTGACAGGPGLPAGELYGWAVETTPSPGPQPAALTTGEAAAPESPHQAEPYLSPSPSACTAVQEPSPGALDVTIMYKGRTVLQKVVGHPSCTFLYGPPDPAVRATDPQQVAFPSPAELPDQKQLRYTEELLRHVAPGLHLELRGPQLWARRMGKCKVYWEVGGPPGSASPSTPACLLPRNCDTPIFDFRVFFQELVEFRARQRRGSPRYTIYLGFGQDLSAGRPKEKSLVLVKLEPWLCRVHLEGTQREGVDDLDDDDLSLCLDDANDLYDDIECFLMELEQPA
| Strand | log fluorescence [z-score] |
| --- | --- |
| TCAGAACTGAGTATCGATTAGTGCTAG | 0.487 |
| GACGAAATGAGTCTCGAGACGTGCTAG | 0.648 |
| TTAGGTCGCCTACTGCTTTAGTGCTAG | -0.4 |
| TCATTTCTTTACTTCACACTGTGCTAG | 1.95 |
| AAATATATACAAACTAAGGATGTGCTA | -0.038 |
| TCAGTTTTCATTATTGCACTGTGCTAG | 1.3 |
| TTAGGTTTCGGACTGGGGTAGTGCTAG | 3.5 |
| TTAGGTTTCTTTTTCCTTTAGTGCTAG | 6.69 |
| TTAGGTCTCCTCCTGCTTTAGTGCTAG | -0.282 |
| TTAGAACTGAGTCTCGAATAGTGCTAG | 0.244 |

Sample 2 — target: CCNB3, cyclin fold, Cln2 fusion (human); method: yeast growth competition, sequencing; matrix: yeast; setting: strong parent motif; reference: not given; reading: higher = stronger binding
Parent: E2F1 docking peptide (human); PPVKRRLDFETDH
| Substitution | normalised enrichment score |
| --- | --- |
| PWVKRRLDFETDH [P2W] | 1.63 |
| PPVQRRLDFETDH [K4Q] | 0.689 |
| PPVKRRSDFETDH [L7S] | -0.167 |
| PPVKRGLDFETDH [R6G] | 0.316 |
| PPCKRRLDFETDH [V3C] | 2.5 |
| PPVKRRLDFEVDH [T11V] | 2.64 |
| PYVKRRLDFETDH [P2Y] | 1.85 |

Sample 3 — method: competition protein-binding microarray; form: double-stranded DNA, one strand shown; matrix: in vitro; concentration: 2 µM; together with: Pho4 competitor, 0.05 µM; reading: higher = stronger binding; shared flanks, not repeated: … GTCTTGATTCGCTTGACGCTGCTG
Target: Centromere-binding protein 1, full length, His-tagged (CBF1, Saccharomyces cerevisiae, UniProt P17106, residues 1-351)
Chain of UniProt P17106 (whole entry, looked up): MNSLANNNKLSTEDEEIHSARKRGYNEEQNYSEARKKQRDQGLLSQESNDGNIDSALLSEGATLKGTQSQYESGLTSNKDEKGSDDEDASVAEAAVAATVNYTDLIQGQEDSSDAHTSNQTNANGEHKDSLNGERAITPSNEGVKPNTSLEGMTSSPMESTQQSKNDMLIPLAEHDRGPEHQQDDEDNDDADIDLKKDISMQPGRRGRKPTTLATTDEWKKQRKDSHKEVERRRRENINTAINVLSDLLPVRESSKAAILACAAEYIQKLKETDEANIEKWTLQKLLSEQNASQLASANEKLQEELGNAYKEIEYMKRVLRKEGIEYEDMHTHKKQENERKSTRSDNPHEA
Setting: whole 60-bp probe, lowest competitor level
| Strand | fluorescence intensity [a.u.] |
| --- | --- |
| AAAGCGGTAATTTTTCACGTGGAGTCAAATATCTAT | 897 |
| CTTGGAATCAACTTGGTCATGACAACACCAGCAGTT | 64.8 |
| CACACTGCGGGGTTACCCGTGTAACGTAGAATAAAA | 75 |
| GGCCTCAAGGCATTACACGTTACGATTTTCCAACTG | 78.2 |
| CCCCGTAGGGCCCGACACGTCTAAAATATTAACCTC | 67.6 |
| CCAACAAACCTTTCACACGTGGTCGGATTCAAGTTC | 1090 |
| AGGTTGATGAAGAAGGACGTGCTTTCCCAGTTGAGT | 70.2 |

Further values, each from its own experiment
| Molecule | target | test | system | setting | how to read | quantity | value |
| --- | --- | --- | --- | --- | --- | --- | --- |
| PhoQ, residues 284 288 289 292 302 303 QWGLFV | PhoP, residues 12 14 15 18 19 LWHSL (Escherichia coli, UniProt P23836) | Sort-seq, measured: YFP reporter | E. coli | PhoQ-PhoP variant library, together with: 10 µM Mg2+ | reference: high Mg2+ state, higher = stronger signaling | fold induction | 5.51 and 10.6 |

Excerpt of the above (sample 2):
| Substitution | normalised enrichment score |
| --- | --- |
| PPVKRRSDFETDH [L7S] | -0.167 |
| PPVKRGLDFETDH [R6G] | 0.316 |
| PPCKRRLDFETDH [V3C] | 2.5 |
